Measurements pooled from the literature.
Parts stem from different laboratories: compare values within a part only. Changes are numbered by the printed parent chain.

Series 1 — target: CCNA2, cyclin fold, Cln2 fusion (human); method: yeast growth competition, sequencing; medium: yeast; notes: strong parent motif; baseline: not given; direction: higher = stronger binding; quantity: normalised enrichment score
Parent: BRCA2 docking peptide (human); PSIKRNLLNEFDR; partner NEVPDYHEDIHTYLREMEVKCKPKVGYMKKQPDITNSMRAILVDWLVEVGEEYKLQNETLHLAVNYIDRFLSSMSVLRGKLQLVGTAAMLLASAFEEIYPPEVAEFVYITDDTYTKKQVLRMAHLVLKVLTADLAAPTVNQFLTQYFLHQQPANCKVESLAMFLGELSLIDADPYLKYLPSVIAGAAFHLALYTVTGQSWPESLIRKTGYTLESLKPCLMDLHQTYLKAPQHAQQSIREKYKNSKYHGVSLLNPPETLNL
L8N: 2.59
E10G: 0.948
N9P: 5.7
L7V: -0.00588
S2E: 2.91
N6L: 1.19
I3S: 5.25
L7A: 0.524
I3K: 2.28
L8H: 2.17
S2W: 3.98
D12N: 6.42
I3F: 5.76
D12I: 3.18
P1Y: 6

Series 2 — method: DHFR PCA, deep sequencing; medium: yeast; together with: (+)-ABA 4.8 µM; baseline: wild-type fitted maximum; direction: higher = stronger binding; quantity: relative binding score
Target: ABI1, truncated, D143A, DHFR fusion (Arabidopsis thaliana)
Notes: methotrexate growth selection, single substitutions
Parent: PYL1, truncated, DHFR fusion (Arabidopsis thaliana); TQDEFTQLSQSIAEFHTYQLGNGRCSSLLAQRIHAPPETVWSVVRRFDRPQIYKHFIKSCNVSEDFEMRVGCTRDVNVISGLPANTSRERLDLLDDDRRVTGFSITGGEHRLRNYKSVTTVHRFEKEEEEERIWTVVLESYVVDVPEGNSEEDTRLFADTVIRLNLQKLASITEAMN; partner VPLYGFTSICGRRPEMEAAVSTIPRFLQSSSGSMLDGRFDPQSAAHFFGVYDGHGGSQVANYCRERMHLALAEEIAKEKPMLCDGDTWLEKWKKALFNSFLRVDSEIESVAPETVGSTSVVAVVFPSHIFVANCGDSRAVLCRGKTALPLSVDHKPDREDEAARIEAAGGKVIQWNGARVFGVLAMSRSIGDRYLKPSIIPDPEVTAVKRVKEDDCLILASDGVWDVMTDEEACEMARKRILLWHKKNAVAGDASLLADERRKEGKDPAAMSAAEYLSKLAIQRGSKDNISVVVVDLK
S87G: -0.815%
H16Y: -25.9%
R74Y: -3.18%
S150E: 13.7%
R132K: 92%
E139S: 33.3%
N114T: -1.74%
I12Q: 5.88%
H16C: 4.67%
L29F: -0.131%
A158V: 109%
L93N: 8.8%
V136E: -12.2%
D3V: 55.8%
F56D: 7.7%

Series 3 — method: RNA Bind-n-Seq; form: RNA; medium: in vitro; tested at: not given; baseline: input RNA pool; direction: higher = stronger binding; quantity: bound/input enrichment
Target: RING finger protein unkempt homolog, zinc fingers 1-6, GST-SBP tag (UNK, Homo sapiens, UniProt Q9C0B0, residues 30-357)
Notes: RNA with constant flanks, human and mouse sites, ends assumed
Residues (chain): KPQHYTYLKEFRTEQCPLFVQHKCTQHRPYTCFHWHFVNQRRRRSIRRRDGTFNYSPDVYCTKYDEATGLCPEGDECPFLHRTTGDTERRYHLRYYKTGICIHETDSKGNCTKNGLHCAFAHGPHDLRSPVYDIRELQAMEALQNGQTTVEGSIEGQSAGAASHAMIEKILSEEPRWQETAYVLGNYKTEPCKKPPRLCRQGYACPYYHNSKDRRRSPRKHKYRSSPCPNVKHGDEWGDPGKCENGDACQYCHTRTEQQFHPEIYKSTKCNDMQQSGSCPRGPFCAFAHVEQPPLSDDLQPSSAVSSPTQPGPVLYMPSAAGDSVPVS
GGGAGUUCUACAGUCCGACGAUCAAUGGAAACAUGAAUAAUGUUGUAACUCGAAGAUUUAGCAAAGCUGACACAAUAGAUACAAUUGAAAAGGAAAUAAGAAAAAUCUUCAGUAUUCCAGAUGAAAAGGAGACCAGAUUGUGGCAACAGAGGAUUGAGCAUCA: 0.605 ratio
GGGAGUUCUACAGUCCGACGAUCAAGUCGAUUACUAUCCUCUCUACUCCUGAAGGCACCUCUGCGGCUUGUAAGUCUAUUCUGGAGAUUAUGCAUAAGGAAGCUCAAGAUAUAAAAUUCACAGAAGAGAUCCCCUUGAAGAUUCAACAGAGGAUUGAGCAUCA: 0.125 ratio
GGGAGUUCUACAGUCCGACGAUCGCCAUCUAUGACAUCUGUCGUAGAAACCUCGAUAUUGAGCGUCCAACCUAUACUAACCUGAAUAGGUUAAUAGGUCAAAUUGUGUCCUCCAUCACUGCUUCCCUGAGAUUUGAUGGAGCCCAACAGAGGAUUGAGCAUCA: 0.0925 ratio
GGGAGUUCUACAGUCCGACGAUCCUUUCAGUAAGAACGACCCCCUAAAAGAAAACAGGAGGAGAUGCAGCGCUUUAGGCCGCCUUAGCCAGCAGCUUGUGUCCUACUCUGGAAGUUGUAACCUACAGUUUUUCUCACCUGUAACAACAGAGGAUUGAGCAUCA: 0.212 ratio
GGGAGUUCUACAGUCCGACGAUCCAUGACAGCAACACUGAUAUGUUUCAGAUUGGUCGGUCAACUGAAAGUCCUAUUGAUUUUGUAGUAACUGACACCGUUCCUGGAAGUCAGAGUAAUUCCGACACGCAGUCAGUACAAAGCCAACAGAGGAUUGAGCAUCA: 0.0745 ratio
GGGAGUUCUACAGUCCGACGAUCCACAGGUGUGGCAGUGCACCCACUUCCAAAUCUCAUAUUUUCAAACACAUUUUUUUUGUGUGUAUGGUCCCCAAUUUUAAUGUACAAAGAUAUUGCAAUACAAUGCUUUGCUUUAAAAUACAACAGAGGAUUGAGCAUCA: 0.184 ratio
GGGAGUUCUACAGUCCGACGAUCGUCAUUCAUACCAUUCACACCUAAAGACUGAAUUUUAUCUGUUUUAAAAAUGAACUUCUCCCGCUACACAGAAGUAACAAAUAUGGUAGUCAGUUUUGUAUUUAGAAAUGUAUUGGUAGCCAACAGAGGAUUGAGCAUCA: 3.69 ratio
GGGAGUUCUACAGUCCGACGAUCAUAGUUUCUUUACAUUGCUGUGCCCUUUAUACCUGUGCCCAGCUGGAGAAUAAUUUGUAUUGGUGGGGUGUUGUUCCUUUCAGUCAAAGGAAGAAAAUGUUAGAGAAAGCUAGAGCAAAACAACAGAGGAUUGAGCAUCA: 1.82 ratio
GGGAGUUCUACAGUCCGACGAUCUCCCAGCCCCUCAUUAGAUUGUUUUCUUCCCAGAGCCCAGGGUCGUGAUAUAUACAUCUAAAUAGCGUUUUGCAUUAUUUCUAGAUGAGUGCAACUGUCAAAGCAAUAUGGGUUCACUGGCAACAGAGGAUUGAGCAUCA: 1.08 ratio
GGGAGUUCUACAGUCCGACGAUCUUUGUUGUGCAUCAUUUAAAACAUUUUGUAUGUUUCUUAUCUGUGUAUACAGUAUGUUCUUGAAUAAUGUUCAUUUGUCGGGAGAACUGUGAGAAAUAAACGAUGUGGAUAUGUUUGUUUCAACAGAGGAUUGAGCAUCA: 0.238 ratio
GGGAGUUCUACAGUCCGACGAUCAAGCUAACAGAGCUCCUCCGAUACUACAUGCUCAACAUUGAAGCUGCUAAGGAUCUCUUAUACAGACGCACCAAAGCCCUCAUUGACUAUGAGAACUCAAACAAAGCUCUGGAUAAGGCCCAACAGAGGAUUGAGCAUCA: 0.0807 ratio

Series 4 — method: competition protein-binding microarray; form: double-stranded DNA, one strand shown; medium: in vitro; tested at: 2 µM; together with: Pho4 competitor, 0.05 µM; direction: higher = stronger binding; quantity: fluorescence intensity
Target: Centromere-binding protein 1, full length, His-tagged (CBF1, Saccharomyces cerevisiae, UniProt P17106, residues 1-351)
Sequence of UniProt P17106 (whole entry, looked up): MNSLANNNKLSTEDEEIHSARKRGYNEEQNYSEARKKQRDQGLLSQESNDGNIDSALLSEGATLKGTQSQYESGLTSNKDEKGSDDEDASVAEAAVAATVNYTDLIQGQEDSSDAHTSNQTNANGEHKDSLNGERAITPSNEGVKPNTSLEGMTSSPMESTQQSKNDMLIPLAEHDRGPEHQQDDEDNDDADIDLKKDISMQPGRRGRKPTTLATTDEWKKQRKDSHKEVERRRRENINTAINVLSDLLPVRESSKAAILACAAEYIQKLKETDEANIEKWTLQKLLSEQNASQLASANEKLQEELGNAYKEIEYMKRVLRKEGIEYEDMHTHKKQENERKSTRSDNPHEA
Notes: whole 60-bp probe, lowest competitor level
ACGCTGAATACTTGGCAGGTATGGCTTTCAACAATGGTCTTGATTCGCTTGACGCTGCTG: 79.1 a.u.
GCTAGAGTAAAATAGTGCATGACAAAAGATGAGCTAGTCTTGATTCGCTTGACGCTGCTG: 106 a.u.
AAAGCGGTAATTTGGGGCGTGGGTGCAGATATCTATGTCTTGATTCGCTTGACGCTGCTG: 78.9 a.u.
GACCTTGAATGCTAGAACGTGGAACATGAATTCCAGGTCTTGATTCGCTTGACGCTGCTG: 107 a.u.
TCGAGCTGACACTATCACATGCGATTGCGCAATCTTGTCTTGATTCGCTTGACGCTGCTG: 164 a.u.
CATACCCAACCTTTTCACGTGGAGTAAGATATTTGTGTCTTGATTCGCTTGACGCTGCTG: 573 a.u.
AACAATAGAAGAAGTGTATAGGAAAAAACTAAGGTGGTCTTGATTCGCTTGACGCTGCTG: 87.7 a.u.
ATGAAATAACATCCACACGTGTAAGAATATATAATTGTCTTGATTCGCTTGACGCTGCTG: 1170 a.u.
CGTCCTAGCGATTGAGAAGTGGGTGCCATGAGGAAGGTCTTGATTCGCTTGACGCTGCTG: 57 a.u.
GTACTGGAATTGTATGCCAAACTTTGCCGGGAAAACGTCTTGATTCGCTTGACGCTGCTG: 69.7 a.u.
CTAACGAAGGTTTGCATAGTGGGTGACAAGCCAAGTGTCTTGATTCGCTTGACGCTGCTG: 67.8 a.u.
CAACTTTCTTAGATATGCGTGCCGAAAGGCGACCCAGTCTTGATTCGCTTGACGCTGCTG: 58.8 a.u.
GAGCGATGCCAGCATCACATGCAGGTTTTCAAGTATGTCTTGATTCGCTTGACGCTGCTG: 345 a.u.
GCATTGATCAATTTGCACGATGGAAAATTTTTCACTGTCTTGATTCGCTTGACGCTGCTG: 89.1 a.u.
AAAGCGGTAATTTGTCAGGTGGGTGCAGATATCTATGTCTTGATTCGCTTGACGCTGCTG: 205 a.u.
CTATCCACCAATATGCTCGTGGGTAACATCTAGAGAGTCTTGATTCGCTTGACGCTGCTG: 74.9 a.u.

For quick reference, copied from above (series 1):
I3K: 2.28
N9P: 5.7
E10G: 0.948
N6L: 1.19
I3F: 5.76
S2E: 2.91
D12I: 3.18
